Measurements gathered from unrelated publications.
Numbered parts are unrelated; each lists some results of a single study. Several values in a cell are separate wells, animals, samples, runs or records.
Sequence of UniProt P54753 (whole entry, looked up): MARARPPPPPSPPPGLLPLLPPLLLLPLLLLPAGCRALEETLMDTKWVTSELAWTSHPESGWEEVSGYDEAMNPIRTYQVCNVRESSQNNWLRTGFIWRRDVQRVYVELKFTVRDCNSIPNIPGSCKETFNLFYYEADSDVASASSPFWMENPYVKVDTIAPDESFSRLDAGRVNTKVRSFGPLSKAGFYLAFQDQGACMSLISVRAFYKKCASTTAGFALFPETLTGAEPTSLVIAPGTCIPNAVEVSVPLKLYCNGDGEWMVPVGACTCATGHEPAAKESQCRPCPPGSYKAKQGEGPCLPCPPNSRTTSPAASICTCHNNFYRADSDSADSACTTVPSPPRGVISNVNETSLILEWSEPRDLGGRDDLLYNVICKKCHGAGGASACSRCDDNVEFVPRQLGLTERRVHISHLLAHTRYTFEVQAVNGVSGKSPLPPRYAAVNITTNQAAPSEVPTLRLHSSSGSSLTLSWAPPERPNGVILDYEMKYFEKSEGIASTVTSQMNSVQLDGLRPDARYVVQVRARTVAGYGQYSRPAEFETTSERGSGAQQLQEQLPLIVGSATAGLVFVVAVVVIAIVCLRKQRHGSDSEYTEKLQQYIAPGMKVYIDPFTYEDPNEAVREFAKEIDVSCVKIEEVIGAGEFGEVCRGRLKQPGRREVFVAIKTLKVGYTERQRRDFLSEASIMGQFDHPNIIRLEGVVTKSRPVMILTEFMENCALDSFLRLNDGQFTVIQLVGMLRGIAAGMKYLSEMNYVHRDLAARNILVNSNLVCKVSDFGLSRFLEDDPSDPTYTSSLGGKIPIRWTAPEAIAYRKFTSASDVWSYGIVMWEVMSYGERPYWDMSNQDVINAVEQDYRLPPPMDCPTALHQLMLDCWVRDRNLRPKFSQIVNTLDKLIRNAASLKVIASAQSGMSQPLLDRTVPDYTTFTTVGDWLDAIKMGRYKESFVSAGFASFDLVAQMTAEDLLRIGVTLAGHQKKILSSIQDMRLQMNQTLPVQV
Sequence of UniProt Q8IWQ3 (whole entry, looked up): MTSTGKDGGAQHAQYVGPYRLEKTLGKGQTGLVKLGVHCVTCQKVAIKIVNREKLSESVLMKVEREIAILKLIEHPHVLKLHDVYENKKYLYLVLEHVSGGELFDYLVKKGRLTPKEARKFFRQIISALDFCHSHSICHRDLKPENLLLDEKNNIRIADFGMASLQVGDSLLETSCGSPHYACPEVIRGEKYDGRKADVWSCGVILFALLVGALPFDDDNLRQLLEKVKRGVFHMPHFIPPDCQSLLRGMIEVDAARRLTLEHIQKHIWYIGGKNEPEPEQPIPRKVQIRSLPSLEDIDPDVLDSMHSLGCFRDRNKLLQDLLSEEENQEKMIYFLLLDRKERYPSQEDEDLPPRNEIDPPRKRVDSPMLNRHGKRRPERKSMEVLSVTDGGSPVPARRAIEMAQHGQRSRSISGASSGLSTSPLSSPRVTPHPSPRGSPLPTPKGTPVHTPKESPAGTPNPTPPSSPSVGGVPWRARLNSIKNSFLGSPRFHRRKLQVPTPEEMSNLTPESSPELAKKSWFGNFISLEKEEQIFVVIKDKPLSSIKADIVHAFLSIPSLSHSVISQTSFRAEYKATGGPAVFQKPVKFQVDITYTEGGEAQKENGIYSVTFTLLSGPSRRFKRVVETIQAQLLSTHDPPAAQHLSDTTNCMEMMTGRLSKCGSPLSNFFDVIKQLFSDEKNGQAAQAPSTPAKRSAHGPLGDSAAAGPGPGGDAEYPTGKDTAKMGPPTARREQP
Sequence of UniProt Q9P286 (whole entry, looked up): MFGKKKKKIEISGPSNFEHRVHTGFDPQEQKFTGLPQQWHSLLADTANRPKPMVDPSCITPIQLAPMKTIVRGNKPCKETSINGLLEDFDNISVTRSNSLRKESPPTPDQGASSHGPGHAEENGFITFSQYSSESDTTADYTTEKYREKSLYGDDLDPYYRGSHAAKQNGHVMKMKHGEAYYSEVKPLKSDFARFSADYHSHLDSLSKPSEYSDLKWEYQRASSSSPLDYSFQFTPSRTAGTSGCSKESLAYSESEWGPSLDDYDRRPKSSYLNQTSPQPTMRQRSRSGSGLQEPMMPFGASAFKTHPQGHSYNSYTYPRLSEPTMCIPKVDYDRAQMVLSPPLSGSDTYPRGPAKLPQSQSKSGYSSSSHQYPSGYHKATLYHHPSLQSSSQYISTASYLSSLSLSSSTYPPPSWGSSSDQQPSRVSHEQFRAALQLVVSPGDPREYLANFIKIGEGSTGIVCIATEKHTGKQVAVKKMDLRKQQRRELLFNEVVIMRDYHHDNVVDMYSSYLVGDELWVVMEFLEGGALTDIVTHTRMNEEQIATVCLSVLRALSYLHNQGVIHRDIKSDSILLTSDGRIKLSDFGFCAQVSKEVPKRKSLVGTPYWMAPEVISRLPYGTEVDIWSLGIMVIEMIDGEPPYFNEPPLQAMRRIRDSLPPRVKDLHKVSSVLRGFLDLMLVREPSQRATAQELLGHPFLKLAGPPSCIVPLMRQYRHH

Block 1 — effect on: enzyme activity; mode: inhibitor; concentration: 0.5 µM; reference: control; quantity: remaining activity
Structure (SMILES): CCn1cnc2c(Nc3cccc(Cl)c3)nc(N[C@H]3CCCC[C@H]3N)nc21
ACVRL1 (Homo sapiens, UniProt P37023): 99.9%
PAK5 (Homo sapiens, UniProt Q9P286): 64.7%
MELK (Homo sapiens, UniProt Q14680): 77%
FES (Homo sapiens, UniProt P07332): 83.5%
ERBB2 (Homo sapiens, UniProt P04626): 95.6%
YES1 (Homo sapiens, UniProt P07947): 35.4%
DYRK1A (Homo sapiens, UniProt Q13627): 100%
EPHB3 (Homo sapiens, UniProt P54753): 92.7%
JAK2 (Homo sapiens, UniProt O60674): 104%
MARK1 (Homo sapiens, UniProt Q9P0L2): 93.1%
PIM1 (Homo sapiens, UniProt P11309): 83.8%
PAK4 (Homo sapiens, UniProt O96013): 84.5%
RPS6KB2 (Homo sapiens, UniProt Q9UBS0): 103%
Cyclin-dependent kinase 5, with p35 (CDK5, Homo sapiens, UniProt Q00535): 13.2%
BRSK2 (Homo sapiens, UniProt Q8IWQ3): 94%

Block 2 — cell line: HEK-293T; effect on: pseudovirus infection; technique: FDA-approved drug library counter-screen; organism: VSV pseudotyped with VSV-G; concentration: 10 µM; time: 16 h; reference: vehicle-treated; quantity: GFP-positive cells
CO[C@@]1(NC(=O)Cc2cccs2)C(=O)N2C(C(=O)O)=C(COC(N)=O)CS[C@@H]21: 136%
C[C@H](Cc1cc2c(c(C(N)=O)c1)N(CCCO)CC2)NCCOc1ccccc1OCC(F)(F)F: 104%
O=C1CC[C@@]2(O)[C@H]3Cc4ccc(O)c5c4[C@@]2(CCN3CC2CC2)[C@H]1O5: 124%
N=C(N)c1ccc(OCCCCCOc2ccc(C(=N)N)cc2)cc1: 83.6%
CC(C)(Sc1cc(C(C)(C)C)c(O)c(C(C)(C)C)c1)Sc1cc(C(C)(C)C)c(O)c(C(C)(C)C)c1: 116%
[H]/N=C(/NCCCCC)N/N=C/c1c[nH]c2ccc(OC)cc12: 101%
COCC(=O)Nc1c(I)c(C(=O)NCC(O)CO)c(I)c(C(=O)N(C)CC(O)CO)c1I (stereo not shown): 129%
CS(=O)(=O)CCNCc1ccc(-c2ccc3ncnc(Nc4ccc(OCc5cccc(F)c5)c(Cl)c4)c3c2)o1: 37%
Cc1ccc(C(=O)c2ccc(CC(=O)O)n2C)cc1: 105%
CC(=O)CCCCn1c(=O)c2c(ncn2C)n(C)c1=O: 131%
O=C(O)CCCCCCCC(=O)O: 80.9%
C[N+]1(C)CCCC(OC(=O)C(O)(c2ccccc2)c2ccccc2)C1 (stereo not shown): 88.5%
CN(C)CC[C@@H](c1ccc(Cl)cc1)c1ccccn1: 119%
Cc1nc(Nc2ncc(C(=O)Nc3c(C)cccc3Cl)s2)cc(N2CCN(CCO)CC2)n1: 91.1%
C/C(=C\C(=O)OCCCCCCCCC(=O)O)C[C@@H]1OC[C@H](C[C@@H]2O[C@H]2[C@@H](C)[C@H](C)O)[C@@H](O)[C@H]1O: 95.5%
CCCCNc1cc(C(=O)O)cc(S(N)(=O)=O)c1Oc1ccccc1: 107%
NC(=O)N1c2ccccc2CC(=O)c2ccccc21: 126%
Cc1onc(-c2ccccc2)c1-c1ccc(S(N)(=O)=O)cc1: 107%
CC(C)/N=c1\cc2n(-c3ccc(Cl)cc3)c3ccccc3nc-2cc1Nc1ccc(Cl)cc1: 123%
CCCCCCCCCCC[C@@H](C[C@@H]1OC(=O)[C@H]1CCCCCC)OC(=O)[C@H](CC(C)C)NC=O: 104%
NC[C@H]1O[C@H](O[C@H]2[C@H](O)[C@@H](O[C@H]3O[C@H](CO)[C@@H](O)[C@H](N)[C@H]3O)[C@H](N)C[C@@H]2N)[C@H](O)[C@@H](O)[C@@H]1O: 77.4%
N#CC1(c2ccc(NC(=O)c3cccnc3NCc3ccncc3)cc2)CCCC1: 112%
O=C(O)c1cc(-c2ccc(F)cc2F)ccc1O: 103%

Block 3 — effect on: enzyme activity; mode: inhibitor; concentration: 77 µM; reference: untreated; quantity: remaining activity
Target: DNA polymerase theta, ATPase domain (POLQ, Homo sapiens, UniProt O75417)
Sequence of UniProt O75417 (whole entry, unmodified, looked up): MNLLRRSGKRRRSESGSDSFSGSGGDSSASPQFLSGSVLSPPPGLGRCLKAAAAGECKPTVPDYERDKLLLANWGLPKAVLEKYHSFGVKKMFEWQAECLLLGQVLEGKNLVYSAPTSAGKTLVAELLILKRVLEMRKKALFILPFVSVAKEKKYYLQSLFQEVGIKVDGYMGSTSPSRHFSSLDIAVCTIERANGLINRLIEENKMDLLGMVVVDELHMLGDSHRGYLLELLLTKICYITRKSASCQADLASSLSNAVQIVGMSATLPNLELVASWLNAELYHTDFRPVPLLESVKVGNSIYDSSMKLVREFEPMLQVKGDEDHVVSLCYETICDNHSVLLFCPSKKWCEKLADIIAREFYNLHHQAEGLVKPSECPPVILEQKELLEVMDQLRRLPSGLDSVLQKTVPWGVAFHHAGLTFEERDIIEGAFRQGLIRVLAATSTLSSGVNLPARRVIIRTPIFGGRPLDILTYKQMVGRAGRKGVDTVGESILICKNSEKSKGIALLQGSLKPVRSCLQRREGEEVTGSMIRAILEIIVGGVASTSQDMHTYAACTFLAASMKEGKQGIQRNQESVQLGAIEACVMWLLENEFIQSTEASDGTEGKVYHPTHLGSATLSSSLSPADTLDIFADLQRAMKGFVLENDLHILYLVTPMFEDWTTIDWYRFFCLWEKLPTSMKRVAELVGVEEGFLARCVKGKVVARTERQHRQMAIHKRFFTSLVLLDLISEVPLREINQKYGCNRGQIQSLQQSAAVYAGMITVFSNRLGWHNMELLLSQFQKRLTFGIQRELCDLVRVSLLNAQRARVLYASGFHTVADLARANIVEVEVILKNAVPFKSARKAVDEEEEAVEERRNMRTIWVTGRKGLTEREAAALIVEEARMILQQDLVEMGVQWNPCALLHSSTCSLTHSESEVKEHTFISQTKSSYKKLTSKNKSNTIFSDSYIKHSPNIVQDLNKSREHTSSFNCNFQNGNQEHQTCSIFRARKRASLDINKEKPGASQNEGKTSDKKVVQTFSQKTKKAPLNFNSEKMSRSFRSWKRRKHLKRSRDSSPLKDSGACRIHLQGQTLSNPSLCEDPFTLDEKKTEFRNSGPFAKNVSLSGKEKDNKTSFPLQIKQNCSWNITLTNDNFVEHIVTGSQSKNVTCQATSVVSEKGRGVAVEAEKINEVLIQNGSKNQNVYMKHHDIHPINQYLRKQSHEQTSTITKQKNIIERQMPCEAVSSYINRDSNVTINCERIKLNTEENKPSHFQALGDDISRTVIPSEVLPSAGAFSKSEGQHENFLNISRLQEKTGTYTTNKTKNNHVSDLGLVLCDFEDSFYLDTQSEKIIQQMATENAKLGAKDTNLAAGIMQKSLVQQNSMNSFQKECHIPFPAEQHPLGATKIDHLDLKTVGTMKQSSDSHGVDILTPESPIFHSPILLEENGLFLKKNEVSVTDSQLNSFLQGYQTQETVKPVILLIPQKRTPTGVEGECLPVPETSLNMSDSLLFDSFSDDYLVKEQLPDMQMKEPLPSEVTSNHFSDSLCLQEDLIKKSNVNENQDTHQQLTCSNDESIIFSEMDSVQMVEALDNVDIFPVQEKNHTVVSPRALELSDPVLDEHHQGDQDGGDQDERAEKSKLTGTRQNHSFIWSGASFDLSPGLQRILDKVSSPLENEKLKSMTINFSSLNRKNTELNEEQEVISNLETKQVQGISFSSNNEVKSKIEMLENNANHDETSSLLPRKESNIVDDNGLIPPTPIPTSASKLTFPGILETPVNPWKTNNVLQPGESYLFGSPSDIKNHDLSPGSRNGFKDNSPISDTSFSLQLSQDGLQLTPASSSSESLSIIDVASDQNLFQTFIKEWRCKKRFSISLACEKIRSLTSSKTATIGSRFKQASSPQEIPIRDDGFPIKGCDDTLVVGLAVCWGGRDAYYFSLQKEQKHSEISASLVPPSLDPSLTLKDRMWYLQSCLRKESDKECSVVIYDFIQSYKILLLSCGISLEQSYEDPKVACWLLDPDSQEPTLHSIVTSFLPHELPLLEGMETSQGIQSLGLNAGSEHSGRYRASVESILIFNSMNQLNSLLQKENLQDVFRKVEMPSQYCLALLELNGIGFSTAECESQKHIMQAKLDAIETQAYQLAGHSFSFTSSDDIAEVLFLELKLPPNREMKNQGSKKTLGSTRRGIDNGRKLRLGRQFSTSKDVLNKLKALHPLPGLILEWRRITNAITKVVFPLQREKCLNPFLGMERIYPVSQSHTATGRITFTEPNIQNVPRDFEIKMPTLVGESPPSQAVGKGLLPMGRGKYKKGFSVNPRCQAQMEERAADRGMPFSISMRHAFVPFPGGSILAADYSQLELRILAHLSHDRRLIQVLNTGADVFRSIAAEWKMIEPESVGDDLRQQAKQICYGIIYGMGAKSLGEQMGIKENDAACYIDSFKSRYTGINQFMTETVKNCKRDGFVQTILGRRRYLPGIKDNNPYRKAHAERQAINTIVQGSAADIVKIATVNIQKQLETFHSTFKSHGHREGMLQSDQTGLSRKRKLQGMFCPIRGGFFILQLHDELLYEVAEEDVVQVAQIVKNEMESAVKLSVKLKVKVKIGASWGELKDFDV
CN1CCC[C@@H]1Cc1c[nH]c2ccc(Nc3ncccc3[N+](=O)[O-])cc12: 96.2%
NCC(CC(=O)O)c1ccc(Cl)cc1 (racemic): 95.5%
COc1ccc2[nH]cc(CCN)c2c1: 103%
CC(=O)OCC(=O)[C@H]1CC[C@H]2[C@@H]3CC[C@H]4C[C@H](O)CC[C@]4(C)[C@H]3C(=O)C[C@]12C: 97.1%
NCc1cc(O)no1: 101%
O=C1NC(=O)c2c1c1c3ccccc3[nH]c1c1[nH]c3ccccc3c21: 95.4%
COc1ccc2c(c1)[nH]c1c(C)nccc12: 103%
NC(N)=NOCC[C@H](N)C(=O)O: 96.4%
CN1CCc2cc3c(cc2[C@H]1[C@@H]1OC(=O)c2c1ccc1c2OCO1)OCO3: 95% and 100%
CCC1(C)CC(=O)NC(=O)C1: 102%

Block 4 — matrix: plasma; quantity: MRT(0-t)
SMILES: O=C1CCC(N2Cc3c(ccc4c3OCC43CCN(Cc4ccccc4)CC3)C2=O)C(=O)N1 (stereo not shown)
male Sprague-Dawley rat; intravenous, 1 mg/kg: 2.1 h
male Sprague-Dawley rat; oral, 3 mg/kg: 3.73 h
male CD-1 mouse; oral, 3 mg/kg: 3.02 h
male CD-1 mouse; intravenous, 1 mg/kg: 1.53 h
rat Sprague Dawley male; oral, 3.0 mg/kg: 3.41 h and 3.81 h
Sprague Dawley rat, male; intravenous, 1.0 mg/kg: 2.11 h
Sprague Dawley rat, male; oral, 3.0 mg/kg: 3.96 h
ICR mouse, male; oral, 3.0 mg/kg: 1.87 h and 4.16 h and 3.04 h

Other studies, line by line — species: human; matrix: microsomes or S9; concentration: 2 µM; time: 0.5 h
C=C[C@H]1C[N@+]2(Cc3cc(C(C)(C)C)c(OC)c(C(C)(C)C)c3)CC[C@H]1C[C@H]2[C@H](O)c1ccnc2ccccc12 — remaining compound: 13%
Cc1nc(NCCc2c[nH]cn2)cc([C@H]2C[C@@H](O)C2)n1 — remaining compound: > 99%

A few entries again (block 1):
ERBB2 (Homo sapiens, UniProt P04626): 95.6%
YES1 (Homo sapiens, UniProt P07947): 35.4%
DYRK1A (Homo sapiens, UniProt Q13627): 100%
EPHB3 (Homo sapiens, UniProt P54753): 92.7%
JAK2 (Homo sapiens, UniProt O60674): 104%
MARK1 (Homo sapiens, UniProt Q9P0L2): 93.1%
PIM1 (Homo sapiens, UniProt P11309): 83.8%
PAK4 (Homo sapiens, UniProt O96013): 84.5%
RPS6KB2 (Homo sapiens, UniProt Q9UBS0): 103%
Cyclin-dependent kinase 5, with p35 (CDK5, Homo sapiens, UniProt Q00535): 13.2%
